Results of several laboratories.
Several values in a cell are separate wells, animals, samples, runs or records.
UniProt P14416, sequence (whole entry, looked up): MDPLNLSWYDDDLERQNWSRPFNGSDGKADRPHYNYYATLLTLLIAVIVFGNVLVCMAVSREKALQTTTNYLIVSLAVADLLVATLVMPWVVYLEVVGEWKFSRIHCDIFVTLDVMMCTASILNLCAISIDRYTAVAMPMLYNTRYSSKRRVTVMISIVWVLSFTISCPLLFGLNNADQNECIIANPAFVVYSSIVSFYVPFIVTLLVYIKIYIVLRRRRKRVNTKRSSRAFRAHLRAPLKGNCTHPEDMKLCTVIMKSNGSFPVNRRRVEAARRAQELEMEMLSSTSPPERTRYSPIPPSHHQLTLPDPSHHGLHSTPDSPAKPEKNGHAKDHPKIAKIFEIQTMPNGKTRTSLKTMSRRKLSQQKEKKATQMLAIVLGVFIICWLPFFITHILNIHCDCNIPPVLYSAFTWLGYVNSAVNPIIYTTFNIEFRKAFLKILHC
UniProt P43354, sequence (whole entry, looked up): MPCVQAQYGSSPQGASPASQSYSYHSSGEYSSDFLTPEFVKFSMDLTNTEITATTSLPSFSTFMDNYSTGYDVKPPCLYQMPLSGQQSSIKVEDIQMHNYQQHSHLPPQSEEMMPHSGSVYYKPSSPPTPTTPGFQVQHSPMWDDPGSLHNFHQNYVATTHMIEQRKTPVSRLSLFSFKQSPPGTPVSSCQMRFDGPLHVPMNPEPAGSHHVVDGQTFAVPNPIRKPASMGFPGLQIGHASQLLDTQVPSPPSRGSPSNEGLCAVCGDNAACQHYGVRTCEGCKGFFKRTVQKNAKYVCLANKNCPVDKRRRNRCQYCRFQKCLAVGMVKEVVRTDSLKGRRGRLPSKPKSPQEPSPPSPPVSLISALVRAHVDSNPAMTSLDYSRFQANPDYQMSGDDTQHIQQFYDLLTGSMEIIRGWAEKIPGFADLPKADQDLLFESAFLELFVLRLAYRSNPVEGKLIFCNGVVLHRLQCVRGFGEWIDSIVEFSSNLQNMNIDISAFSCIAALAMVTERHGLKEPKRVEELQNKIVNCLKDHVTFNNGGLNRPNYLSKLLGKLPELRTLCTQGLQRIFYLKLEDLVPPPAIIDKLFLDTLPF
UniProt O14965, sequence (whole entry, looked up): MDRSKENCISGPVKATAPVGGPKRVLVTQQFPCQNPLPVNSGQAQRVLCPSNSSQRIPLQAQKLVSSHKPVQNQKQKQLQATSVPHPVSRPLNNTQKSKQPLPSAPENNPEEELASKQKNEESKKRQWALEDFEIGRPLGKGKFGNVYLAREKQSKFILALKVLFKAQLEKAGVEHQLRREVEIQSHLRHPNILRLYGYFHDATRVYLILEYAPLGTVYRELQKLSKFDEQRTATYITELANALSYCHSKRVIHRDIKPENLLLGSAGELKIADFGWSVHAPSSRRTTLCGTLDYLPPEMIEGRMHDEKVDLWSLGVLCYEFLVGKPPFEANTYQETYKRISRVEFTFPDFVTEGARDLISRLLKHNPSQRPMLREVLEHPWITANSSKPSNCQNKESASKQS
UniProt Q5VT25, sequence (whole entry, looked up): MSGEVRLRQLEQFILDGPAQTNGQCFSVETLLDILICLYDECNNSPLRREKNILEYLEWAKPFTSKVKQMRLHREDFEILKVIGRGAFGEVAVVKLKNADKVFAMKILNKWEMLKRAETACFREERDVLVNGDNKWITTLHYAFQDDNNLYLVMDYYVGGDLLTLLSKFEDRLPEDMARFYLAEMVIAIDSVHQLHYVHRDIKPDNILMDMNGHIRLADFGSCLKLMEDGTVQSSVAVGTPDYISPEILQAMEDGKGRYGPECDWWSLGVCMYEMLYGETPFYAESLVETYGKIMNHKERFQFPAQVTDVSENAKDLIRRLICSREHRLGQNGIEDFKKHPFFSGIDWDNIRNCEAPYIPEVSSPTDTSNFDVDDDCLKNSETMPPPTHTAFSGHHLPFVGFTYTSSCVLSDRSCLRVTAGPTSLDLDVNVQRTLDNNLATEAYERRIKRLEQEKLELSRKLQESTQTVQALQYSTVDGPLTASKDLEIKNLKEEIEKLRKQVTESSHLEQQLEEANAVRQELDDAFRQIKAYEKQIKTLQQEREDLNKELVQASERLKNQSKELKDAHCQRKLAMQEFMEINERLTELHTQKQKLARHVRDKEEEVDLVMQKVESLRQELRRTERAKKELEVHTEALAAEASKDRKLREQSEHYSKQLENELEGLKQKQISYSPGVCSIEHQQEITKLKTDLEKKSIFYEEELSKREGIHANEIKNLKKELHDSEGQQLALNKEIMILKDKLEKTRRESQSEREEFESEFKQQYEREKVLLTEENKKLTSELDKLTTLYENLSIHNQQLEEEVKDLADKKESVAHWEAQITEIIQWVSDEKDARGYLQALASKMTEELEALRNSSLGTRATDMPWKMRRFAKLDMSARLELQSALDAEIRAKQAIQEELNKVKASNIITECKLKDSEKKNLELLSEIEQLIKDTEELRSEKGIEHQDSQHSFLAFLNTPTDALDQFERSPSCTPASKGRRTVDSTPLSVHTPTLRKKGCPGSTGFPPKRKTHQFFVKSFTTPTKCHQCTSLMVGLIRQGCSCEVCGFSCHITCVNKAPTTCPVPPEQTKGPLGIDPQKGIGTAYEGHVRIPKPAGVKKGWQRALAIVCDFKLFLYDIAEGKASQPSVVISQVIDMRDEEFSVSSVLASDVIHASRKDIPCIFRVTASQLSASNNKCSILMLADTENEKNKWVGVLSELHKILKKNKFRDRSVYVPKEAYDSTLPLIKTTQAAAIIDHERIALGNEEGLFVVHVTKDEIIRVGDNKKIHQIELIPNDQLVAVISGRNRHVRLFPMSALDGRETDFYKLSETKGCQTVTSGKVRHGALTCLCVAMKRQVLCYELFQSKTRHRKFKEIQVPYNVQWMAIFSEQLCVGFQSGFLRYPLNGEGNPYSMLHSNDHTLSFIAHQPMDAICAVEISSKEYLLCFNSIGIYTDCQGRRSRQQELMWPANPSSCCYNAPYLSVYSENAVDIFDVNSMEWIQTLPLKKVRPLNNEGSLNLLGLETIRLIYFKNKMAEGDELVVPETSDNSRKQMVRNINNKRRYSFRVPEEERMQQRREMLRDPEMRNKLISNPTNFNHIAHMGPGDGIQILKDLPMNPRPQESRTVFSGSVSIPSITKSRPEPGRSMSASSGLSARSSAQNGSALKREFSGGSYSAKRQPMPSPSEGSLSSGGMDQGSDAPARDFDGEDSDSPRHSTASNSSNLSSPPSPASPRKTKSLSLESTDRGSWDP
UniProt P45985, sequence (whole entry, looked up): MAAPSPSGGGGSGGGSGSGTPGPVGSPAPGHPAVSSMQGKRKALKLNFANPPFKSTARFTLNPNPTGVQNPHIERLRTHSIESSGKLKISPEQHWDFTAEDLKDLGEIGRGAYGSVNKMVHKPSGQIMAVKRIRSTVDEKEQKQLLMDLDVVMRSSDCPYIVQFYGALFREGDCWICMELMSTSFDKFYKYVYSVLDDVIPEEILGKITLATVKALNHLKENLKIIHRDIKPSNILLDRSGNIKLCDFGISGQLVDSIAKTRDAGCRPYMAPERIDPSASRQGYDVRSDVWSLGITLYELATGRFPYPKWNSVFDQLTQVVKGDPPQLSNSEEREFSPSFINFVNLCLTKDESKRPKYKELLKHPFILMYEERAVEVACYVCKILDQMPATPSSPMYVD
UniProt P25440, sequence (whole entry, looked up): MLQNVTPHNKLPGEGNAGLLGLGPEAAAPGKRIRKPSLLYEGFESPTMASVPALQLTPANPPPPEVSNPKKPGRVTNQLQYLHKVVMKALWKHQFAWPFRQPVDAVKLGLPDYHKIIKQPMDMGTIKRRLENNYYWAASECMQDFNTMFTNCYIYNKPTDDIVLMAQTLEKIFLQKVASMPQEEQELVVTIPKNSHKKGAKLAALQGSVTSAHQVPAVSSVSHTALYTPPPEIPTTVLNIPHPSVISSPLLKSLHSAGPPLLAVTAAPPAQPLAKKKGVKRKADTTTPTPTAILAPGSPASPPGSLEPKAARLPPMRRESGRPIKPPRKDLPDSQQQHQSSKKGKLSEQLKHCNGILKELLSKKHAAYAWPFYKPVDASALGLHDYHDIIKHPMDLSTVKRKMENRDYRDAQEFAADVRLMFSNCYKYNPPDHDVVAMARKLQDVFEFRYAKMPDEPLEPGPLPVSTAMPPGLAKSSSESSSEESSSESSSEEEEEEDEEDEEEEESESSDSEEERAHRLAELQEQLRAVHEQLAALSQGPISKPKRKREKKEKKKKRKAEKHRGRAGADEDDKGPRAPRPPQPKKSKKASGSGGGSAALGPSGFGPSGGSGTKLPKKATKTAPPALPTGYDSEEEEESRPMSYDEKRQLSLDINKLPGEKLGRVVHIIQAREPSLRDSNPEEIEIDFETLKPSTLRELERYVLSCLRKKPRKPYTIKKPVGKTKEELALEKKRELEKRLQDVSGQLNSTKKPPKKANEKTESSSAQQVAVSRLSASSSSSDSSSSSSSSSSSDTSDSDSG
UniProt P09417, sequence (whole entry, looked up): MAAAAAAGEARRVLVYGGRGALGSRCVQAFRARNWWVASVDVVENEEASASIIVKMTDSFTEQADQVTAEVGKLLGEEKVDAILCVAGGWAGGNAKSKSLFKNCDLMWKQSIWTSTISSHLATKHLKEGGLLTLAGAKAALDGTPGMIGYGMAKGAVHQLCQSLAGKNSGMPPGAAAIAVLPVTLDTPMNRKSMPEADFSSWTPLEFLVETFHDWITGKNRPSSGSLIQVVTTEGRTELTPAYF
UniProt Q8IU85, sequence (whole entry, looked up): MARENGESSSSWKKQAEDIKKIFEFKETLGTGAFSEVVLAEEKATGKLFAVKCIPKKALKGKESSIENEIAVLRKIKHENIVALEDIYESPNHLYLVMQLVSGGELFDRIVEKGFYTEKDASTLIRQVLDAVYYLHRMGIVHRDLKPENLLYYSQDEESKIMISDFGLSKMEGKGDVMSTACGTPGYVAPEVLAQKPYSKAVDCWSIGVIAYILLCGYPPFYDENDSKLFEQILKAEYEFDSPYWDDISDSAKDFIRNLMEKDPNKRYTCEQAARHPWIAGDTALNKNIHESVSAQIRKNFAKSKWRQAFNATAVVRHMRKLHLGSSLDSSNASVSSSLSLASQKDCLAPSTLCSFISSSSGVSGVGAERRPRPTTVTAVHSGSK

`NC(=O)C1=CN([C@@H]2O[C@H](COP(=O)(O)OP(=O)(O)OC[C@H]3O[C@@H](n4cnc5c(N)ncnc54)[C@H](O)[C@@H]3O)[C@@H](O)[C@H]2O)C=CC1` has a Kd of 56 nM (Dihydropteridine reductase (Homo sapiens, UniProt P09417); binding, SPR).
`CCN1CCN(c2cc(N3CCN(CC)CC3)nc(NCCNc3ccnc4cc(Cl)ccc34)n2)CC1` gave a Kd of 1500 nM and 2500 nM (Nuclear receptor subfamily 4 group A member 2 (Homo sapiens, UniProt P43354); binding, ITC).
`CCCOc1ccc(-c2ccc(C#N)cc2)cc1` has a Kd of 356 nM (Monocarboxylate transporter 10 (Rattus norvegicus, UniProt Q91Y77); binding, ITC; pH 7.4).
The Kd of `CN(C)C(=O)c1cc2cnc(Nc3ccc(C(=O)NCCCCCCOc4cccc5c4C(=O)N(C4CCC(=O)NC4=O)C5=O)cc3)nc2n1C1CCCC1` (centres unmarked) is reported as 6.3 nM (Aurora kinase A (AURKA, Homo sapiens, UniProt O14965); binding, competition with immobilised ligand).
The Kd of `Cc1cnc(-c2ccc(-c3ccc(NC(=O)Nc4c(F)cc(F)cc4F)cc3F)c3c2C(=O)NC3)[nH]1` is reported as 11 nM (Dual specificity mitogen-activated protein kinase kinase 4 (MAP2K4, Homo sapiens, UniProt P45985); binding, competition with immobilised ligand).
`CCO[C@@H](Cc1ccc(OCCc2ccc(OS(C)(=O)=O)cc2)cc1)C(=O)O` gave a Kd of 400 nM (Peroxisome proliferator-activated receptor gamma (PPARG, Homo sapiens, UniProt P37231); binding, ITC).
For `Cc1cc(Nc2cc3ncccc3c(N[C@@H]3C[C@H]4CC[C@@H](C3)N4CCC#N)n2)n[nH]1`, the Kd was 110 nM (Calcium/calmodulin-dependent protein kinase type 1D (CAMK1D, Homo sapiens, UniProt Q8IU85); binding, competition with immobilised ligand).
With `COCc1nc2cnc3cc(-c4c(C)noc4C)c(OC[C@H]4CCNC4)cc3c2n1[C@H](C)c1ccccc1` the Kd was 3210 nM (Bromodomain-containing protein 2, BD2 (BRD2, Homo sapiens, UniProt P25440); binding, SPR).
`CCCN1CCN(c2ccc(-c3cncc(Cl)c3N3CCC4(CCNC4=O)CC3)cc2)CC1` has a Kd of 2040 nM (Serine/threonine-protein kinase MRCK alpha (CDC42BPA, Homo sapiens, UniProt Q5VT25); cell-free assay; lysate).
For `Cc1nc2n(c(=O)c1CCN1CCC(c3noc4cc(F)ccc34)CC1)CCCC2O` (centres unmarked), the Kd was 5.45 nM and 9.25 nM (D(2) dopamine receptor (DRD2, Homo sapiens, UniProt P14416); binding).
The Kd of `OC[C@H]1OC(O)[C@H](O)[C@@H](O)[C@@H]1O` (some centres unmarked) is reported as 104000 nM (ATP-dependent RNA helicase DDX3X (DDX3X, Homo sapiens, UniProt O00571); binding, MST).

Repeated from above:
The Kd of `OC[C@H]1OC(O)[C@H](O)[C@@H](O)[C@@H]1O` (some centres unmarked) is reported as 104000 nM (ATP-dependent RNA helicase DDX3X (DDX3X, Homo sapiens, UniProt O00571); binding, MST).
